{"data": "Published values pooled from the literature", "Faah": "Fatty-acid amide hydrolase 1 (Faah, Rattus norvegicus, UniProt P97612)", "BRD4 BD1": "Bromodomain-containing protein 4, BD1 (BRD4, Homo sapiens, UniProt O60885)", "Histone acetyltransferase RTT109 with Vps75": "Histone acetyltransferase RTT109, with Vps75 (Saccharomyces cerevisiae, UniProt Q07794)", "PDGFRB": "Platelet-derived growth factor receptor beta (PDGFRB, Homo sapiens, UniProt P09619)", "SIRT2": "NAD-dependent protein deacetylase sirtuin-2 (SIRT2, Homo sapiens, UniProt Q8IXJ6)", "serine/threonine phosphatase Stp1": "serine/threonine phosphatase Stp1 (Staphylococcus aureus, UniProt A0A0H2XF73)", "BRD4 BD2": "Bromodomain-containing protein 4, BD2 (BRD4, Homo sapiens, UniProt O60885)", "UCHL1": "Ubiquitin carboxyl-terminal hydrolase isozyme L1 (UCHL1, Homo sapiens, UniProt P09936)", "note": "Lines come from different studies, so protocols differ. ± marks the error that the study gave."}
{"SMILES": "O=C(Nc1cnccc1Cl)N1CCN(Cc2ccc3c(c2)OC(F)(F)O3)CC1", "target": "Faah", "assay": "enzyme activity, inhibitor", "test system": "rat brain membranes", "conditions": "5 min preincubation", "IC50": "0.365 µM"}
{"SMILES": "CC[C@@](N)(c1cnc(C(F)(F)F)c(Cl)c1)c1c2ncn(C3CC3)c(=O)c2nn1C", "target": "Dihydroorotate dehydrogenase (Canis lupus familiaris, UniProt A0A8I3MWX2)", "assay": "enzyme activity, inhibitor, DCIP reduction", "IC50": "> 30 µM"}
{"SMILES": "CN(C)C(=O)c1cc2cnc(Nc3ccc(-c4ccc5c(=O)cc(N6CCNCC6)oc5c4)cc3)nc2n1C1CCCC1", "target": "BRD4 BD1", "assay": "inhibitor", "IC50": "> 10 µM"}
{"SMILES": "O=C(Nc1cccnn1)N1CCC(=Cc2cccc(Oc3ccc(C(F)(F)F)cn3)c2)CC1", "target": "Faah", "assay": "enzyme activity, inhibitor", "test system": "rat brain membranes", "conditions": "0 min preincubation", "IC50": "0.0039 µM"}
{"SMILES": "C[C@H]1CN(C2COC2)CCN1c1ccc(Nc2cc(-c3ccnc(N4CCn5c(cc6c5CC(C)(C)C6)C4=O)c3CO)cn(C)c2=O)nc1", "target": "LYN (Homo sapiens, UniProt P07948)", "IC50": "> 5 µM"}
{"SMILES": "O=C(OCc1ccccc1)c1ccc(O)cc1", "target": "Histone-arginine methyltransferase CARM1 (Mus musculus, UniProt Q9WVG6)", "assay": "methyltransferase activity, inhibitor", "conditions": "with: histone H3 substrate, [3H]AdoMet", "IC50": "309 µM"}
{"SMILES": "O=C(O)c1ccc2nc(-c3ccc(OCc4ccccc4COc4ccc(-c5nc6ccc(C(=O)O)cc6[nH]5)cc4)cc3)[nH]c2c1", "target": "Beta-lactamase (Escherichia coli, UniProt Q8VNN1)", "assay": "enzyme activity, inhibitor", "IC50": "210 ± 25 µM"}
{"SMILES": "O=S1(=O)CC(N2CCCCC2)c2ccccc21 (stereo not drawn)", "target": "Histone acetyltransferase RTT109 with Vps75", "assay": "enzyme activity, inhibitor, HTS, CPM-based, dose response", "IC50": "> 125 µM"}
{"SMILES": "Cc1cnc(-c2ccc(-c3ccc(NC(=O)Nc4c(F)cc(F)cc4F)cc3F)c3c2C(=O)NC3)[nH]1", "target": "PDGFRB", "assay": "enzyme activity, inhibitor, mobility shift", "conditions": "with: ATP 1 mM", "IC50": "0.0254 µM"}
{"SMILES": "CCCCCCCCCCCCNC(=S)NCCCC[C@H](NS(C)(=O)=O)C(=O)N[C@H](C)C(=O)N[C@@H](CCCNC(=N)N)C(=O)O", "target": "SIRT2", "assay": "enzyme activity, inhibitor", "IC50": "0.11 ± 0.01 µM"}
{"SMILES": "CC[C@@H]1[C@H](F)C(=O)N[C@@H]1COc1nccc2cc(C(N)=O)c(OC)cc12", "target": "LRRK2 (Homo sapiens, UniProt Q5S007)", "assay": "ATP-site probe binding, ActivX profiling", "test system": "THP-1 cell lysate", "conditions": "Lys2 site", "IC50": "0.91 µM"}
{"SMILES": "CN(C)C(=O)c1cc2cnc(Nc3cc(C(F)(F)F)c(-c4cccc5c(=O)cc(N6CCOCC6)oc45)cn3)nc2n1C1CCCC1", "target": "BRD4 BD1", "assay": "inhibitor", "IC50": "8.97 µM"}
{"SMILES": "Cc1cc([C@@H](C)Nc2ccccc2C(=O)O)c2nc(N3CCC(F)(F)CC3)c(C#N)c(=O)n2c1", "target": "Phosphatidylinositol 4,5-bisphosphate 3-kinase catalytic subunit alpha isoform, with p85 alpha (PIK3CA, Homo sapiens, UniProt P42336)", "assay": "ADP-Glo", "conditions": "with: ATP 10 µM", "IC50": "1.12 µM"}
{"SMILES": "Cc1ccc2[nH]nc(-c3nnc(Nc4ccc(Cl)cc4)s3)c2c1", "target": "thymidine phosphorylase", "assay": "enzyme activity, inhibitor, spectrophotometric", "conditions": "pH 7.5, 25 °C", "IC50": "8.6 ± 0.86 µM"}
{"SMILES": "O=C1CC(Nc2ccc(Cc3nc4ccccc4[nH]3)cc2)C(=O)N1c1ccc(Br)cc1 (stereo not drawn)", "target": "Histone acetyltransferase RTT109 with Vps75", "assay": "enzyme activity, inhibitor, HTS, CPM-based, dose response", "IC50": "> 125 µM"}
{"SMILES": "CCN(c1ccccc1)S(=O)(=O)c1ccc(Cl)c(C(=O)Nc2ccccc2N2CC(C)(C)CC2=O)c1", "target": "N-myristoyltransferase (Cryptosporidium parvum, UniProt Q5CV46)", "assay": "enzyme activity, inhibitor", "IC50": "> 125 µM"}
{"SMILES": "Oc1ccc(/C=C/c2cc(O)cc(O)c2)cc1", "target": "Alpha-amylase 1A (AMY1A, Homo sapiens, UniProt P0DUB6)", "assay": "enzyme activity, inhibitor, HPAEC-PAD", "conditions": "with: maltoheptaose substrate", "IC50": "> 100 µM"}
{"SMILES": "Nc1ncnc2c1ncn2[C@@H]1O[C@H](COP(=O)(O)OP(=O)(O)OP(=O)(O)O)[C@@H](O)[C@H]1O", "target": "IMPDH2 (Homo sapiens, UniProt P12268)", "IC50": "45 µM"}
{"SMILES": "Cn1c(SC2=CS(=O)(=O)c3ccccc32)nc2ccccc21", "target": "Histone acetyltransferase RTT109 with Vps75", "assay": "enzyme activity, inhibitor, HTS, CPM-based, dose response", "IC50": "> 125 µM"}
{"SMILES": "COc1ccc(-c2cncc(N[C@@H](C)c3cccc(NC(=O)c4cncc(C)c4)c3)n2)cc1OC", "target": "PDGFRB", "IC50": "0.014 µM"}
{"SMILES": "COc1c(O)cc2occ(-c3ccc(O)cc3)c(=O)c2c1O", "target": "serine/threonine phosphatase Stp1", "assay": "phosphatase activity, inhibitor", "IC50": "> 333 µM"}
{"SMILES": "CN1CCN(c2ccc(Nc3ncc4cc(C#N)c(=O)n(C5CCCC5)c4n3)cc2)CC1", "target": "CLK1 (Homo sapiens, UniProt P49759)", "IC50": "0.446 µM"}
{"SMILES": "Cc1c(N2CCOCC2)oc2c(-c3ccc(Nc4ncc5cc(C(=O)N(C)C)n(C6CCCC6)c5n4)cc3F)cccc2c1=O", "target": "BRD4 BD2", "assay": "inhibitor", "IC50": "> 10 µM"}
{"SMILES": "CCCSc1nsc(NC(=O)c2cnc3ccccc3n2)n1", "target": "Histone acetyltransferase RTT109 with Vps75", "assay": "enzyme activity, inhibitor, HTS, CPM-based, dose response", "IC50": "> 125 µM"}
{"SMILES": "Cc1nc(Nc2ncc(C(=O)Nc3c(C)cccc3Cl)s2)cc(N2CC[C@H](O)C2)n1", "target": "BTK (Homo sapiens, UniProt Q06187, C481S)", "assay": "enzyme activity, inhibitor", "IC50": "0.00072 µM"}
{"SMILES": "Cc1cc(O)cc(Nc2nnc(-c3n[nH]c4ccc(C)cc34)s2)c1", "target": "thymidine phosphorylase", "assay": "enzyme activity, inhibitor, spectrophotometric", "conditions": "pH 7.5, 25 °C", "IC50": "10.6 ± 1.79 µM"}
{"SMILES": "CCOC(=O)[C@H](CCc1ccccc1)N[C@@H](C)C(=O)N1CCC[C@H]1C(=O)O", "target": "ACE (Oryctolagus cuniculus, UniProt P12822)", "assay": "enzyme activity, inhibitor", "test system": "water", "conditions": "2 h, pH 8.3, 37 °C, with: hippuryl-histidyl-leucine", "IC50": "0.0376 µM"}
{"SMILES": "COc1cc(C(=O)NS(=O)(=O)c2ccccc2C)ccc1Cc1cn(C)c2ccc(NC(=O)OC3CCCC3)cc12", "target": "LRRC8A/LRRC8C (Homo sapiens, UniProt Q8IWT6+Q8TDW0, Y124F/Y126F)", "assay": "ion current, inhibitor, whole-cell patch clamp", "test system": "HCT116 LRRC8-/- transfected", "conditions": "at +100 mV", "IC50": "19.6 µM"}
{"SMILES": "C[C@@H]1O[C@H](CNS(=O)(=O)c2ccc(C#CC3CC3)s2)[C@@H](O)[C@H](O)[C@@H]1O", "target": "fucose-binding lectin LecB (Pseudomonas aeruginosa, UniProt A0A0H2ZE85)", "IC50": "0.28 ± 0.08 µM"}
{"SMILES": "CNc1nc(C)nc(N[C@H]2CCC[C@@H](C(=O)NCc3ccc(C#N)cc3C(F)(F)F)C2)n1", "target": "soluble epoxide hydrolase (Equus caballus, UniProt F7C407)", "IC50": "0.003 µM"}
{"SMILES": "c1nc2nc(Nc3ccc(N4CCOCC4)cc3)nc(NC3CCCCC3)c2[nH]1", "target": "Receptor-like protein kinase FERONIA (FER, Arabidopsis thaliana, UniProt Q9SCZ4)", "assay": "enzyme activity, inhibitor", "IC50": "> 100 µM"}
{"SMILES": "COc1ccc(CNC2CC(=O)N(c3ccc(Br)cc3)C2=O)cc1 (stereo not drawn)", "target": "Histone acetyltransferase RTT109 with Vps75", "assay": "enzyme activity, inhibitor, HTS, CPM-based, dose response", "IC50": "> 125 µM"}
{"SMILES": "CC1=CC(=O)C(C(C)C)=CC1=O", "target": "LRRK2 (Homo sapiens, UniProt Q5S007, G2019S)", "assay": "kinase activity, radiometric", "conditions": "with: MBP substrate", "IC50": "0.125 µM"}
{"SMILES": "COc1ccc(-c2cc(=O)c3cccc(Nc4ncc5cc(C(=O)N(C)C)n(C6CCCC6)c5n4)c3o2)cc1", "target": "BRD4 BD1", "assay": "inhibitor", "IC50": "> 10 µM"}
{"SMILES": "CN(c1ccccc1)c1nc(-c2ccccc2)no1", "target": "Histone acetyltransferase RTT109 with Vps75", "assay": "enzyme activity, inhibitor, HTS, CPM-based, dose response", "IC50": "> 125 µM"}
{"SMILES": "CCOCCOCCOCCNC(=S)NCCCC[C@H](NS(C)(=O)=O)C(=O)N[C@@H](C)C(=O)N[C@@H](CCCNC(=N)N)C(N)=O", "target": "SIRT2", "assay": "enzyme activity, inhibitor", "IC50": "51 ± 12 µM"}
{"SMILES": "CN(C)C(=O)c1cc2cnc(Nc3cc(C(=O)O)cc(-c4ccc5c(=O)cc(N6CCOCC6)oc5c4)c3)nc2n1C1CCCC1", "target": "BRD4 BD1", "assay": "inhibitor", "IC50": "> 10 µM"}
{"SMILES": "COc1cc2c(cc1O)CC[n+]1cc3c(OC)c(OC)ccc3cc1-2", "target": "serine/threonine phosphatase Stp1", "assay": "phosphatase activity, inhibitor", "IC50": "> 296 µM"}
{"SMILES": "CN1CCN(c2cc(=O)c3ccc(Nc4ncc5cc(C(=O)N(C)C)n(C6CCCC6)c5n4)cc3o2)CC1", "target": "BRD4 BD2", "assay": "inhibitor", "IC50": "> 10 µM"}
{"SMILES": "CN1C(=O)CCC(N2C(=O)c3cccc(NCCCCCCNC(=O)c4ccc(Oc5ccc(Cl)cc5NS(=O)(=O)c5ccc(Cl)c(C(F)(F)F)c5)cc4)c3C2=O)C1=O (stereo not drawn)", "target": "Protein cereblon, with DDB1 (CRBN, Homo sapiens, UniProt Q96SW2)", "assay": "binding, HTRF competition", "IC50": "1.81 µM"}
{"SMILES": "CS(=O)(=O)c1ccc(-c2ccc(NC(=O)COc3ccccc3)cc2)nn1", "target": "Catenin beta-1, with BCL9 HD2 (CTNNB1, Homo sapiens, UniProt P35222)", "assay": "BCL9 binding, inhibitor, AlphaScreen", "IC50": "40 µM"}
{"SMILES": "O=C(Nc1cnccc1-c1ccccc1)c1c[nH]c2ncc(-c3ccccc3)cc12", "target": "GSK3B (Homo sapiens, UniProt P49841)", "assay": "kinase activity, inhibitor", "IC50": "0.00035 ± 6e-05 µM"}
{"SMILES": "O=C(CCl)c1c(-c2ccccc2)[nH]c2ccccc12", "target": "UCHL1", "assay": "inhibitor, ubiquitin-rhodamine cleavage", "conditions": "2 h preincubation", "IC50": "> 200 µM"}
{"SMILES": "Cc1ccc(S(=O)(=O)c2ccc([N+](=O)[O-])o2)cc1", "target": "OTUD7B (Homo sapiens, UniProt Q6GQQ9)", "assay": "deubiquitinase activity, inhibitor, MALDI-TOF DUB", "conditions": "30 °C, 35 min pre-incubation", "IC50": "0.97 µM"}
{"SMILES": "CC(=O)Nc1ccc(NC(=O)C(C#N)=Cc2cc(F)ccc2F)cc1", "target": "UCHL1", "assay": "inhibitor, ubiquitin-rhodamine cleavage", "conditions": "2 h preincubation", "IC50": "37.7 µM"}
{"SMILES": "O=C1CCC(=O)N1c1ccc(Br)cc1", "target": "Histone acetyltransferase RTT109 with Vps75", "assay": "enzyme activity, inhibitor, HTS, CPM-based, dose response", "IC50": "> 125 µM"}
{"SMILES": "Cn1c(-c2ccccc2)c(C(=O)CCl)c2ccccc21", "target": "UCHL1", "assay": "inhibitor, ubiquitin-rhodamine cleavage", "conditions": "2 h preincubation", "IC50": "> 200 µM"}
{"SMILES": "O=[N+]([O-])c1c(NC2CS(=O)(=O)c3ccccc32)nc2ccccn12 (stereo not drawn)", "target": "Histone acetyltransferase RTT109 with Vps75", "assay": "enzyme activity, inhibitor, HTS, CPM-based, dose response", "IC50": "> 125 µM"}
